Measurements pooled from the literature.
Every numbered part comes from another study and shows a few of its results, in no order. Several values in a cell are separate wells, animals, samples, runs or records.
Sequence of UniProt Q9Y3S1 (whole entry, looked up): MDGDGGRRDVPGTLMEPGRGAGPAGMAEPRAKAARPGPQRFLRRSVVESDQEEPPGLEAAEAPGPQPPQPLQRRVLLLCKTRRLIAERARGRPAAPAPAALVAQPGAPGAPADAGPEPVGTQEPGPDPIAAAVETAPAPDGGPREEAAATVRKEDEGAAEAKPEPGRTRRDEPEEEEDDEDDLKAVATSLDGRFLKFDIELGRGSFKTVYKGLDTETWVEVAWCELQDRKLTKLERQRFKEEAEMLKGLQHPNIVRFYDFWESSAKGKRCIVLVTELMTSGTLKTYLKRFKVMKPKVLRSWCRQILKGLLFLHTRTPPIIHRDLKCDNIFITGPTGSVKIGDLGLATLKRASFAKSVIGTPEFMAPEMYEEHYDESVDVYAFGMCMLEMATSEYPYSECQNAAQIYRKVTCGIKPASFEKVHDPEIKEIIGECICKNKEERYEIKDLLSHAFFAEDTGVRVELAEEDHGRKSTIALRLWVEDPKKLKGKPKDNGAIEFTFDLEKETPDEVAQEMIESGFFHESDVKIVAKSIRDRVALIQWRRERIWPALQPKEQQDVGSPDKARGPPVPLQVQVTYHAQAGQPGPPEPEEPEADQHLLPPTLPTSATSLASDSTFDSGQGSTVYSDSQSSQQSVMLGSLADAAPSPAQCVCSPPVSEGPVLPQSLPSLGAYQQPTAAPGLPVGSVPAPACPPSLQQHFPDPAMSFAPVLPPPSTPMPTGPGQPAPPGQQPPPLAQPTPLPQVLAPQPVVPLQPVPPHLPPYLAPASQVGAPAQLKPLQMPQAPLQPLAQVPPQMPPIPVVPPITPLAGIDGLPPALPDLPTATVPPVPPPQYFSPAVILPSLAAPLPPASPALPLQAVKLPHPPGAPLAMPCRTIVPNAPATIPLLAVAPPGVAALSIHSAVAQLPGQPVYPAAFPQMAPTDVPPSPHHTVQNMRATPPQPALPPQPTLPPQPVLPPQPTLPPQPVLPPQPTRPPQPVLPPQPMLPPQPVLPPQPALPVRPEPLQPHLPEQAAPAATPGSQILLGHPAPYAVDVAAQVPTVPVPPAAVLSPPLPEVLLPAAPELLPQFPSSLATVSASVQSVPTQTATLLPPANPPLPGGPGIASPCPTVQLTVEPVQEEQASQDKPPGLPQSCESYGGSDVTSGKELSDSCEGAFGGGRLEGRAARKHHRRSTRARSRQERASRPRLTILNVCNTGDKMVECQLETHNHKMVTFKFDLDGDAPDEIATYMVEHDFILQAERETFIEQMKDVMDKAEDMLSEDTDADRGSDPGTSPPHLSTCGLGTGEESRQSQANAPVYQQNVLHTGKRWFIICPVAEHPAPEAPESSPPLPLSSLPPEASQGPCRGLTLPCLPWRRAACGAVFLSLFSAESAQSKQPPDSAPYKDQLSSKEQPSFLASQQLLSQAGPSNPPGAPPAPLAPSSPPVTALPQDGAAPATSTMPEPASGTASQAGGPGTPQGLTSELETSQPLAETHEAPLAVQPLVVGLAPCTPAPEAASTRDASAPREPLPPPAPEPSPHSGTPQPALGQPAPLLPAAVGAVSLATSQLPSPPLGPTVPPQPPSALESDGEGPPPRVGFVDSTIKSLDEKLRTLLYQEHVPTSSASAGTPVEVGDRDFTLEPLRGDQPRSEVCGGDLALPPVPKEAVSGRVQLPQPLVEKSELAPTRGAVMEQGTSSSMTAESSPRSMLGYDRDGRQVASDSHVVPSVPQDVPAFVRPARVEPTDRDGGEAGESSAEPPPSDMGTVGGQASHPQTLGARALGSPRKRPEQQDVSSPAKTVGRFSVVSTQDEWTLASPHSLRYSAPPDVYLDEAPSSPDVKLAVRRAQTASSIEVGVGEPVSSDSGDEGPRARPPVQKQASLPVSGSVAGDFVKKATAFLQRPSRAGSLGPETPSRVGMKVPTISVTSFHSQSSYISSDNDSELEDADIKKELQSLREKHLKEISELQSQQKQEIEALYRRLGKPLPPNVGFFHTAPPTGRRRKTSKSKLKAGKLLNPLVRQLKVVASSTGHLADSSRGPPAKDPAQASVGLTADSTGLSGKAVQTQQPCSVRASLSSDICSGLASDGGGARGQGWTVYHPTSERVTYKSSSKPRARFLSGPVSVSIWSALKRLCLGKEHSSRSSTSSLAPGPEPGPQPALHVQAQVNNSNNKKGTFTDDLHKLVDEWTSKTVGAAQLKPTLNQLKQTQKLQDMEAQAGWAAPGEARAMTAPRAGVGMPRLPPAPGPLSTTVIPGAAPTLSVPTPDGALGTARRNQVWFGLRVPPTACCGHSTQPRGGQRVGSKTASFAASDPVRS
Sequence of UniProt P35590 (whole entry, looked up): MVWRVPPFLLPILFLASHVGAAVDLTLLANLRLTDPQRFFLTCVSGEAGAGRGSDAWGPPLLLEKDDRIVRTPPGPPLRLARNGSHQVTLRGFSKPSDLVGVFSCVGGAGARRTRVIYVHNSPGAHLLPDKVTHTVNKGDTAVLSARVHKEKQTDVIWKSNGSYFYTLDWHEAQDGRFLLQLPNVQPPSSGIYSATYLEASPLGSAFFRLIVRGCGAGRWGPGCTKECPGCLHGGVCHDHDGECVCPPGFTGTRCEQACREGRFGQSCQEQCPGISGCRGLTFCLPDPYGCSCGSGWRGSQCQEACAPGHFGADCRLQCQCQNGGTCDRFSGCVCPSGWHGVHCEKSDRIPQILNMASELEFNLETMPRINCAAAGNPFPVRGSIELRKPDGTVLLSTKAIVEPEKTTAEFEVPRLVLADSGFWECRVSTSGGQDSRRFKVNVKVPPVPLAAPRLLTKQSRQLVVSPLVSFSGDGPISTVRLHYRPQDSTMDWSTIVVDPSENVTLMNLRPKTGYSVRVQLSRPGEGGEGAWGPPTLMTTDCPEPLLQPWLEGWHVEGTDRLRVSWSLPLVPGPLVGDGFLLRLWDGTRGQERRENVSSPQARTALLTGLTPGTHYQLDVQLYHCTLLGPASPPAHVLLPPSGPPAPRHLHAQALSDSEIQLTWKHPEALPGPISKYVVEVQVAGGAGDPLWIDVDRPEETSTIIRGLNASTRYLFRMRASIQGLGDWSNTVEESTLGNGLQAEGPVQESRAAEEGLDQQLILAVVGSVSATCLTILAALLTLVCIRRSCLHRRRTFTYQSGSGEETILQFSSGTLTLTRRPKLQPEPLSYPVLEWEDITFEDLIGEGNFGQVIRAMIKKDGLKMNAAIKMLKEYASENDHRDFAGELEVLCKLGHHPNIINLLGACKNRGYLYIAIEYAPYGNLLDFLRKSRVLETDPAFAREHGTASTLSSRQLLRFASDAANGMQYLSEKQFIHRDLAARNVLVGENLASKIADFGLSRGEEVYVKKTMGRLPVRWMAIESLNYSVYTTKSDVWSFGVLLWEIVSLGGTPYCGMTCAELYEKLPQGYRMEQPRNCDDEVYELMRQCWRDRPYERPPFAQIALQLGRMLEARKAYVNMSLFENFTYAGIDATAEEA
Sequence of UniProt Q9UKI8 (whole entry, looked up): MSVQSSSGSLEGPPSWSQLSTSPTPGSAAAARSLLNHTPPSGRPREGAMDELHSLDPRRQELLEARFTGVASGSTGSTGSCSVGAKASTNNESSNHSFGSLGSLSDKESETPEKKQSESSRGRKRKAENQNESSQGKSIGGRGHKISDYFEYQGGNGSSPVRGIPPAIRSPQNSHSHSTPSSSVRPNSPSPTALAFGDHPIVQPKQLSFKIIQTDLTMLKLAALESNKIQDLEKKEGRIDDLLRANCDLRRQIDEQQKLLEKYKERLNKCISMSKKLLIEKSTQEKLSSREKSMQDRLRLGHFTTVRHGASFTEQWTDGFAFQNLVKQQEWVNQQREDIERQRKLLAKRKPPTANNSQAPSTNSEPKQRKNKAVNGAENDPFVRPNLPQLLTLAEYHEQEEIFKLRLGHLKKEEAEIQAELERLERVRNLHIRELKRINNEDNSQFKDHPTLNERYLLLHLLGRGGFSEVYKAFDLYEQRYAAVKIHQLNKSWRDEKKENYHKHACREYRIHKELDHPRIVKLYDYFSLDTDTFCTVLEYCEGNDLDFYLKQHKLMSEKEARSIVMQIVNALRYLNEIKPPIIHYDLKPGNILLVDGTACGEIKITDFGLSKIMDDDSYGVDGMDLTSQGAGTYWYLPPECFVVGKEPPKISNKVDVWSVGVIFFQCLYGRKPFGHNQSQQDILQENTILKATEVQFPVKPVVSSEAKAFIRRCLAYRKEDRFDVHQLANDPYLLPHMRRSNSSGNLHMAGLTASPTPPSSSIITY
Sequence of UniProt P46734 (whole entry, looked up): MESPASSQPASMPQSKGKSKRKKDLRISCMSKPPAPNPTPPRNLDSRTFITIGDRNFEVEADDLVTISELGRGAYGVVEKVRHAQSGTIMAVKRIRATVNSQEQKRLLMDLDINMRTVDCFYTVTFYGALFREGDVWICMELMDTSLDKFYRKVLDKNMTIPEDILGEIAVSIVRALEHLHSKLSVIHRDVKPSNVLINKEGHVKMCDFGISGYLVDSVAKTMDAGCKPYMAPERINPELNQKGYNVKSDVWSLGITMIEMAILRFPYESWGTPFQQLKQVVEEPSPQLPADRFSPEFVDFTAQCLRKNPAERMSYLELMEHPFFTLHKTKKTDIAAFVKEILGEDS

Series 1 — method: competition with immobilised ligand; concentration: 1 µM
Structure (SMILES): NS(=O)(=O)c1cc(NC(=O)C2(c3ccccc3Cl)CC2)ccc1Oc1cccc(Cl)c1
target	assay	remaining binding [%]
GRK4 (Homo sapiens, UniProt P32298)	cell-free assay	100
MAPK10 (Homo sapiens, UniProt P53779)	cell-free assay	100
CDK16 (Homo sapiens, UniProt Q00536)	cell-free assay	100
CASK (Homo sapiens, UniProt O14936)	cell-free assay	89
ROS1 (Homo sapiens, UniProt P08922)	cell-free assay	82
EGFR (Homo sapiens, UniProt P00533)	cell-free assay	75
ACVR1 (Homo sapiens, UniProt Q04771)	cell-free assay	100
MAP3K2 (Homo sapiens, UniProt Q9Y2U5)	cell-free assay	100
PRKD1 (Homo sapiens, UniProt Q15139)	cell-free assay	65
STK33 (Homo sapiens, UniProt Q9BYT3)	cell-free assay	100
ITK (Homo sapiens, UniProt Q08881)	cell-free assay	79
MAP2K3 (Homo sapiens, UniProt P46734)	cell-free assay	84
Cyclin-dependent kinase 4, with cyclin D1 (CDK4, Homo sapiens, UniProt P11802)	cell-free assay	95
Tyrosine-protein kinase ABL1, phosphorylated (ABL1, Homo sapiens, UniProt P00519, T315I)	cell-free assay	75
PRKAA2 (Homo sapiens, UniProt P54646)	cell-free assay	87
WNK2 (Homo sapiens, UniProt Q9Y3S1)	cell-free assay	88
TLK1 (Homo sapiens, UniProt Q9UKI8)	cell-free assay	99
PIM2 (Homo sapiens, UniProt Q9P1W9)	cell-free assay	76
NTRK1 (Homo sapiens, UniProt P04629)	cell-free assay	100
Tyrosine-protein kinase ABL1, phosphorylated (ABL1, Homo sapiens, UniProt P00519, E255K)	binding	72
COQ8B (Homo sapiens, UniProt Q96D53)	cell-free assay	63
EPHA3 (Homo sapiens, UniProt P29320)	cell-free assay	100
MARK2 (Homo sapiens, UniProt Q7KZI7)	cell-free assay	100
PIM3 (Homo sapiens, UniProt Q86V86)	cell-free assay	88
TIE1 (Homo sapiens, UniProt P35590)	cell-free assay	85

Series 2 — medium: plasma
SMILES: O=C1CCC(N2Cc3cc(C4CCN(Cc5ccccc5)CC4)ccc3C2=O)C(=O)N1 (stereo not shown)
system	conditions	plasma concentration
ICR mouse, male	oral, 3 mg/kg, 0.083 h	73.7 ng/mL and 30 ng/mL and 45.2 ng/mL
ICR mouse, male	intravenous, 1 mg/kg, 0.25 h	116 ng/mL and 160 ng/mL
male ICR mice	oral, 3 mg/kg, 24 h	not detected
Sprague Dawley rat, male	oral, 3 mg/kg, 8 h	6.98 ng/mL and 7.1 ng/mL
male ICR mice	oral, 3 mg/kg, 0.5 h	268 ng/mL
male ICR mice	intravenous, 1 mg/kg, 4 h	17.8 ng/mL
male Sprague Dawley rats	oral, 3 mg/kg, 1 h	37.2 ng/mL
ICR mouse, male	intravenous, 1 mg/kg, 0.083 h	191 ng/mL and 237 ng/mL
male ICR mice	oral, 3 mg/kg, 4 h	38.3 ng/mL

Series 3 — cell line: mouse MPNST tumor cells; method: high-content nuclear imaging; item: cell number; concentration: 10 µM; time: 12 h; notes: mean of 2 replicates; baseline: plate mean; reading: higher = more cells
SMILES	nuclei count
NS(=O)(=O)c1ccc(NC(=O)Nc2ccc(F)cc2)cc1	2.95 z-score
Cc1cc(C(=O)N2Cc3cnn(C)c3Nc3ccccc32)ccc1CNC(=O)N1CCC[C@H]1C(=S)N1CCCN(C)CC1	0.991 z-score
O=C(O)c1cc(O)c2ccc(Cl)cc2n1	-0.0748 z-score
CC(C)NCC(O)COc1ccc(COCCOC(C)C)cc1 (stereo not shown)	0.596 z-score
COc1ccc(CC(=O)NCc2ccccc2-c2ccccc2C(=O)NCc2ccc(F)cc2F)cc1	0.204 z-score

Series 4 — observed: enzyme activity; action: inhibitor; concentration: 0.5 µM; baseline: control
Target: Activin receptor type-1 (ACVR1, Homo sapiens, UniProt Q04771)
Target sequence (Q04771 1-509): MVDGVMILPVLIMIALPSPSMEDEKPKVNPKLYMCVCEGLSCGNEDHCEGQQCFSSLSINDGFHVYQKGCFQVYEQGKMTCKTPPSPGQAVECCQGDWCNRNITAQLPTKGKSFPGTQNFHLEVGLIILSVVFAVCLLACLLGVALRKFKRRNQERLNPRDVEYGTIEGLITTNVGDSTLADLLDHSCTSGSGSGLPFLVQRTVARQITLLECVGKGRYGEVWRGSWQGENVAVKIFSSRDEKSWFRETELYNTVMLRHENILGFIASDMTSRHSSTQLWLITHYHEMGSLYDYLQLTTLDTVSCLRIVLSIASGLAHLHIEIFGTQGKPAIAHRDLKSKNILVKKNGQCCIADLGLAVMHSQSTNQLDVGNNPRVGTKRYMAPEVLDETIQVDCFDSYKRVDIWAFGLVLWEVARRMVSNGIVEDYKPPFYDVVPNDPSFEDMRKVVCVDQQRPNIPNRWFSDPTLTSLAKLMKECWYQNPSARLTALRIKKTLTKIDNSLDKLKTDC
SMILES	remaining activity
O=C(O)c1ccc2c3c1cccc3c(=O)n1c3ccccc3nc21	91.1%
NCCNc1ncc(C(N)=O)c(Nc2cccc(C(F)(F)F)c2)n1	98.9%
Cn1c2ccccc2c2c3c(c4c5ccccc5n(CCC#N)c4c21)CNC3=O	155%
CO[C@H]1C[C@@H]2CC[C@@H](C)[C@@](O)(O2)C(=O)C(=O)N2CCCC[C@H]2C(=O)O[C@H]([C@H](C)C[C@@H]2CC[C@@H](O)[C@H](OC)C2)CC(=O)[C@H](C)/C=C(\C)[C@@H](O)[C@@H](OC)C(=O)[C@H](C)C[C@H](C)/C=C/C=C/C=C/1C	94.6%
Nc1[nH]nc2nc3ccccc3nc12	94.3%
Nc1ncnc2n[nH]c(Nc3ccc(F)cc3)c12	127%
CN(C)c1ccc(C=C2C(=O)Nc3ccccc32)cc1	104%
COc1cc2ncnc(Nc3ccc(F)c(Cl)c3)c2cc1OCCCN1CCOCC1	106%
O=C(CCCc1ccc(-c2ccccc2F)cc1)Nc1ccc(O)cc1	95.2%
Nc1ccc2ncnc(NCCc3ccc(Oc4ccccc4)cc3)c2c1	91.8%
Cc1ccc(Nc2nccc(N(C)c3ccc4c(C)n(C)nc4c3)n2)cc1S(N)(=O)=O	104%
CNC(=O)c1cc(Oc2ccc(NC(=O)Nc3ccc(Cl)c(C(F)(F)F)c3)cc2)ccn1	98.7%
COc1cc2nccc(Oc3ccc(NC(=S)NC(=O)c4ccccc4C)cc3)c2cc1OC	93.5%
Cc1nc(-c2ccccc2)c(-c2ccncc2)o1	104%
O=C1NC(=O)C(c2cn(CCCn3ccnc3)c3ccccc23)=C1Nc1ccccc1	94.4%
CCOC(=O)c1c(C)[nH]c(/C=C2\C(=O)Nc3ccccc32)c1C	99.8%
